Results collected from several papers.
Every numbered part comes from another study and shows a few of its results, in no order.
Chain of UniProt Q13882 (whole entry, looked up): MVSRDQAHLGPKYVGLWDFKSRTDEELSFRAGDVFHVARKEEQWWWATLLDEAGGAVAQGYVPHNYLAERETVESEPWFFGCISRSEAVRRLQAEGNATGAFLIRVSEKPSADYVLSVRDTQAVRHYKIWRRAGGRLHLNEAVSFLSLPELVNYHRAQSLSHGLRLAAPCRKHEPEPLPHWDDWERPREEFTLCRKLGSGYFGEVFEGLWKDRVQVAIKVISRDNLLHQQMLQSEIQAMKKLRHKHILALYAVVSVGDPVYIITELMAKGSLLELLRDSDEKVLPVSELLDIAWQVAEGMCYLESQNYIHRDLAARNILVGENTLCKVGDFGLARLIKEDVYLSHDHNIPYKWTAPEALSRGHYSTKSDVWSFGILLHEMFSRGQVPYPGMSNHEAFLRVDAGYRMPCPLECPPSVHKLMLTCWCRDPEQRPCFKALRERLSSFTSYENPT
Chain of UniProt P43403 (whole entry, looked up): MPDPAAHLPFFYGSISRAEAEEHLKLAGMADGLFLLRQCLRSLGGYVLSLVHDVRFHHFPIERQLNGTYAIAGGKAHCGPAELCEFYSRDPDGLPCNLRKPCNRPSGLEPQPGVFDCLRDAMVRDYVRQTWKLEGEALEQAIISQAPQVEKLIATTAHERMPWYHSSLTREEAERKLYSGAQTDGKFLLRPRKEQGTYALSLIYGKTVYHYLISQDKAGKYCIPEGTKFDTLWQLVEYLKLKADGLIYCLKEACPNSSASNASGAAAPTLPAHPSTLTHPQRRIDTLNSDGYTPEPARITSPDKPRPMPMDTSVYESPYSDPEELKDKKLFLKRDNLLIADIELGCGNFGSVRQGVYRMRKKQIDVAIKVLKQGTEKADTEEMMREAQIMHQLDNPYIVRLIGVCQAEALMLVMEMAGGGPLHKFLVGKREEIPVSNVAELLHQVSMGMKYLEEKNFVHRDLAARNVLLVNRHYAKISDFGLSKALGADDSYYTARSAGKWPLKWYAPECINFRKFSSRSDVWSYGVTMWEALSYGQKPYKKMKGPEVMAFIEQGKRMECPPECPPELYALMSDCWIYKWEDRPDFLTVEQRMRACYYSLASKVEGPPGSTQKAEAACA
Chain of UniProt Q13188 (whole entry, looked up): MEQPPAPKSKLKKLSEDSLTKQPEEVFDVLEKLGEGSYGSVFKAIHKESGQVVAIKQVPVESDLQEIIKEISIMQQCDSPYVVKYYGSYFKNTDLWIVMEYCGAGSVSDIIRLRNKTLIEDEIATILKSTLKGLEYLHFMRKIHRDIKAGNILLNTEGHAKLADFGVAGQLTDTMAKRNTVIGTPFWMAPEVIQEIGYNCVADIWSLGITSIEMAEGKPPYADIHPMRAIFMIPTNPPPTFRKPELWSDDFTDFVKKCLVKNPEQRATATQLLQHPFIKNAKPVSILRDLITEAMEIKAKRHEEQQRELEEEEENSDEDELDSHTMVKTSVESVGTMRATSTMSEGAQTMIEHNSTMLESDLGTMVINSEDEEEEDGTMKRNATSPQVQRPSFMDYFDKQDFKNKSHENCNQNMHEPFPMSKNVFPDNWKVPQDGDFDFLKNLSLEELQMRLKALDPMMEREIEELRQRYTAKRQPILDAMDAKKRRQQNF
Chain of UniProt P16234 (whole entry, looked up): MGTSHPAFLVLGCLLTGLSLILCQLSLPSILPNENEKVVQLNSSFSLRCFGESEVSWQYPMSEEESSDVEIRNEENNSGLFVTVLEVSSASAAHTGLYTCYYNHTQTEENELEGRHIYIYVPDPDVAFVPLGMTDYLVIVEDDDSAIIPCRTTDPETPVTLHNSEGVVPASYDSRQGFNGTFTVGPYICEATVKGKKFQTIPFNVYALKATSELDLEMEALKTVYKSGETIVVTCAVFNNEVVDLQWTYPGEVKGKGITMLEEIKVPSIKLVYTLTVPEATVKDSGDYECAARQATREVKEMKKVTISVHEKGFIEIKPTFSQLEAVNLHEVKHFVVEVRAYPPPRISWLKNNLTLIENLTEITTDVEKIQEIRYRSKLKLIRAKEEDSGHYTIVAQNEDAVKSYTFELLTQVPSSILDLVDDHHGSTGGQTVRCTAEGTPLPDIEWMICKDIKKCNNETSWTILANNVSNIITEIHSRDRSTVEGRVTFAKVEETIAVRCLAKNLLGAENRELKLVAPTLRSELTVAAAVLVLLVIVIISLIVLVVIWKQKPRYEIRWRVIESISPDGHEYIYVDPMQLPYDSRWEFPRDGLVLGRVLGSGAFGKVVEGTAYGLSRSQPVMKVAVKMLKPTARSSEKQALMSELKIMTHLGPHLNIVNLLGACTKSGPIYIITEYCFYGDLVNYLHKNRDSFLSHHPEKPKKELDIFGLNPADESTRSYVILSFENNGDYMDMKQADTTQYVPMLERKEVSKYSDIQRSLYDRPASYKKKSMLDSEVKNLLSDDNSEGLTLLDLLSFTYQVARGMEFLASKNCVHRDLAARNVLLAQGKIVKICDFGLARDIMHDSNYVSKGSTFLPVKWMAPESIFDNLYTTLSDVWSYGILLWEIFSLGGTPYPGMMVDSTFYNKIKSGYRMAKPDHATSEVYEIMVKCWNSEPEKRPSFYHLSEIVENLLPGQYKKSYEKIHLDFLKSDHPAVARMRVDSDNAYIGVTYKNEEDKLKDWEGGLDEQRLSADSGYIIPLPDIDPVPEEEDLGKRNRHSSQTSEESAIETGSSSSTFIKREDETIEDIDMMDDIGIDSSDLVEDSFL
Chain of UniProt O43318 (whole entry, looked up): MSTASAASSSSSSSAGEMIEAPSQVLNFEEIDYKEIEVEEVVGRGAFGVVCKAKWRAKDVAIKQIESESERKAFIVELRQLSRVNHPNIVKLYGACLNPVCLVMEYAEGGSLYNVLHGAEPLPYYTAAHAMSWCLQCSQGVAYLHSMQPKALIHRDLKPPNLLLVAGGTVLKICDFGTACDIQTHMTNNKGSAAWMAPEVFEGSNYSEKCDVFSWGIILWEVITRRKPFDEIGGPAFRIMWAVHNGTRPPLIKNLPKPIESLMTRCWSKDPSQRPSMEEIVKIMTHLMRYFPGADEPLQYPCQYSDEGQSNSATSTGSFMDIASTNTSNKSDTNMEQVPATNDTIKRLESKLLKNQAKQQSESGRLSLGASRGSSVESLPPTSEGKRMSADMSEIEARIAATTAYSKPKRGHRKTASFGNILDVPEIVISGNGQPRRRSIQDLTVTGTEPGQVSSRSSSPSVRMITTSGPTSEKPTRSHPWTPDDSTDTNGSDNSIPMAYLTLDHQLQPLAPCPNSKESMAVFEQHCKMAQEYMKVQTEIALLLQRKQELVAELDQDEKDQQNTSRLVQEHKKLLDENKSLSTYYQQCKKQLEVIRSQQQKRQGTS
Chain of UniProt P04629 (whole entry, looked up): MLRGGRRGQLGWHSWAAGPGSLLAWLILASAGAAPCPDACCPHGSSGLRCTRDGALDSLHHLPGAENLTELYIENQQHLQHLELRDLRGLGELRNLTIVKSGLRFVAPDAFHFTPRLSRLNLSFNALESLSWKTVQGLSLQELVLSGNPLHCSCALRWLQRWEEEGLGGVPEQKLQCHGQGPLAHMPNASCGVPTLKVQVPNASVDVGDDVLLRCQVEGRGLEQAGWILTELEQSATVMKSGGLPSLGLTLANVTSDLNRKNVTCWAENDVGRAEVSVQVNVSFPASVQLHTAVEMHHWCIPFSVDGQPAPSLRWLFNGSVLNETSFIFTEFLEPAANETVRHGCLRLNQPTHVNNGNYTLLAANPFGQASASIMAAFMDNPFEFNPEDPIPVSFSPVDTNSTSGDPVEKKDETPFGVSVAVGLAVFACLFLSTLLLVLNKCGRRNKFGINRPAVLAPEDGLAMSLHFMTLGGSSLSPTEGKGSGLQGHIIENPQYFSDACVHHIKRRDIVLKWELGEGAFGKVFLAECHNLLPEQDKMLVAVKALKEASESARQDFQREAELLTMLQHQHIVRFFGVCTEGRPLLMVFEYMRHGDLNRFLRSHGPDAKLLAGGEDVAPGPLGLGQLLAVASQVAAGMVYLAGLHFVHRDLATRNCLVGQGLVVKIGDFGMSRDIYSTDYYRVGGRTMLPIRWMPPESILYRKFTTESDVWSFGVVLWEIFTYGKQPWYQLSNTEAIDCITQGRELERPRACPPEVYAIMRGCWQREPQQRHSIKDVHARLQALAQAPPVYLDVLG

Block 1 — observed: enzyme activity; mode: inhibitor; tested at: 10 µM; endpoint: inhibition
Target: Calcium/calmodulin-dependent protein kinase type II subunit alpha (CAMK2A, Homo sapiens, UniProt Q9UQM7)
Chain of UniProt Q9UQM7 (whole entry, looked up): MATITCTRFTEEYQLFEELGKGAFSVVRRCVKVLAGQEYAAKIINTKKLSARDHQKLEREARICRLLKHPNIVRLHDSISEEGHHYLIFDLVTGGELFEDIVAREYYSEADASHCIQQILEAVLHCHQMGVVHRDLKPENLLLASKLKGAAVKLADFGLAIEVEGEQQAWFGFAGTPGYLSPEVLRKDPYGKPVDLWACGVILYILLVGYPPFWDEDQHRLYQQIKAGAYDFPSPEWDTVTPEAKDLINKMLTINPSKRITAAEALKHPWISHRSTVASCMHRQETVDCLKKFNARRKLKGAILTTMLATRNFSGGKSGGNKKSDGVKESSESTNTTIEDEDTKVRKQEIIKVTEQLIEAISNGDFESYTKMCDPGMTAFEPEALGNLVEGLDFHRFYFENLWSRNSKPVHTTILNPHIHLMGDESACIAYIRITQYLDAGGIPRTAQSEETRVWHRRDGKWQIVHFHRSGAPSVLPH
COc1ccc2c(=O)cc(-c3ccccc3)oc2c1: -27%
N[C@H](CS)C(=O)O: -4%
C/C=C(\CC[C@@H](C)[C@H]1CC[C@H]2[C@@H]3CC=C4C[C@@H](O)CC[C@]4(C)[C@H]3CC[C@]12C)C(C)C: 33%
CC(=O)OCc1ccccc1: -4%
CC1=C(CO)C(=O)O[C@@H]([C@@H](C)[C@H]2CC[C@H]3[C@@H]4C[C@H]5O[C@]56[C@@H](O)C=CC(=O)[C@]6(C)[C@H]4CC[C@]23C)C1: 4%
NC(=O)C[C@H](N)C(=O)O: -13%
C[C@]12CCC(=O)C=C1C=C[C@@H]1[C@@H]2CC[C@@]2(C)[C@H]1CC[C@@]21CCC(=O)O1: -7%
CC[C@H](C)C(=O)O[C@H]1C[C@@H](C)C=C2C=C[C@H](C)[C@H](CC[C@@H]3C[C@@H](O)CC(=O)O3)[C@H]21: -7%
C=C1[C@H]2C[C@H]2[C@]2(C)Cc3occ(C)c3[C@H](O)[C@@H]12: -1%
O=C[C@H](O)[C@@H](O)[C@H](O[C@H]1O[C@H](CO)[C@@H](O[C@H]2O[C@H](CO)[C@@H](O[C@H]3O[C@H](CO)[C@@H](O)[C@H](O)[C@H]3O)[C@H](O)[C@H]2O)[C@H](O)[C@H]1O)[C@H](O)CO: 23%
Cc1ccc(N(CC2=NCCN2)c2cccc(O)c2)cc1: 0%

Block 2 — species: mouse; sample: microsomes or S9; tested at: 2 µM; time: 0.5 h; endpoint: remaining compound
Cc1cc(C)n(-c2cccc(-c3cnc4n3CCOC4)c2)n1: 0.07%
CCOC(=O)c1[nH]c(=O)n(CCNC(=O)OC(C)(C)C)c1C: 46.2%
Cn1cnnc1C1CCCN1c1ncnc2c1c(Br)nn2C (centres unmarked): > 100%
COc1ccc(-c2oc3cc(OC)c(OC)c(OC)c3c(=O)c2OC)cc1OC: 12.6%
O=C1CCc2cc(S(=O)(=O)Nc3ccc(Cc4ccncc4)cc3)ccc2N1: 47%
CC(c1ncc(-c2ccc(O)cc2)s1)C(O)(Cn1cncn1)c1ccc(F)cc1F (centres unmarked): 13.8%
CNc1nc(CNc2nc(COC)nc3scc(-c4ccccc4)c23)cs1: 1.91%
Cc1nn(-c2ccc(F)cc2)c(C)c1C1CC(=O)Nc2c1c(C)nn2-c1ncnc2[nH]cnc12 (centres unmarked): 42.1%
CC(C)(C)c1cc(O)c2o/c(=N\c3ccc(S(N)(=O)=O)cc3)c(C(N)=O)cc2c1: 77.7%

Block 3 — observed: enzyme activity; mode: inhibitor; tested at: 0.5 µM; reference: control; endpoint: remaining activity
Structure (SMILES): Cc1cc(Nc2cc(N3CCN(C)CC3)nc(Sc3ccc(NC(=O)C4CC4)cc3)n2)[nH]n1
STK4 (Homo sapiens, UniProt Q13043): 48.9%
MAP3K7 (Homo sapiens, UniProt O43318): 90.7%
PDGFRA (Homo sapiens, UniProt P16234): 71.4%
CAMK2A (Homo sapiens, UniProt Q9UQM7): 84.1%
ZAP70 (Homo sapiens, UniProt P43403): 106%
TSSK1B (Homo sapiens, UniProt Q9BXA7): 90.5%
BRAF (Homo sapiens, UniProt P15056): 104%
NTRK1 (Homo sapiens, UniProt P04629): 6.52%
STK3 (Homo sapiens, UniProt Q13188): 80.2%
SRPK2 (Homo sapiens, UniProt P78362): 94.6%
PTK6 (Homo sapiens, UniProt Q13882): 94.6%

Block 4 — observed: ligand displacement; tested at: 10 µM; endpoint: inhibition
Target: 5-hydroxytryptamine receptor 6 (HTR6, Homo sapiens, UniProt P50406)
Chain of UniProt P50406 (whole entry, looked up): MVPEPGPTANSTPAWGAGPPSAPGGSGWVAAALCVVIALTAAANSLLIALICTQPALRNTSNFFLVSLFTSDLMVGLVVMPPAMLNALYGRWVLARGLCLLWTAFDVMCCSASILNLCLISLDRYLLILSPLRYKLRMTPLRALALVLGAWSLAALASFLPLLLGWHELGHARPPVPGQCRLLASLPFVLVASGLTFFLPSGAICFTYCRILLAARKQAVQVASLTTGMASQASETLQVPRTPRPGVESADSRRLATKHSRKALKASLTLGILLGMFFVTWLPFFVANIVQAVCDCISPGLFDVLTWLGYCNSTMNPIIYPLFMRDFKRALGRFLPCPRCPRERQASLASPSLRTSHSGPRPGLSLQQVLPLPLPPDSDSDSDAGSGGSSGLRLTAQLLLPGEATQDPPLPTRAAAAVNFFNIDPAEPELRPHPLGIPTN
CC(=O)N1CCC(c2ccc(C(=O)NC3=NCCN3)cc2C(F)(F)F)CC1: 0.267%
COc1cc(C(=O)O)ncc1C#Cc1ccccc1NS(=O)(=O)c1cccc2c(N(C)C)ccnc12: 65.5%
COCCOc1nc(-c2ccc(Cl)nc2)nc2c1CN(C(=O)c1ncn3ccccc13)CC2: -4.55%
Cc1c(NC(=O)c2cc(C(N)=O)nc3cc(F)ccc23)c(C(F)(F)F)nn1Cc1ccc(C#N)cc1: -0.383%
CCC(=NO)C(C)=Cc1ccc(F)c(C)c1: -3.93%
CCC(F)(F)c1cc(N2CCC(S(C)(=O)=O)CC2)nc2sc(C(N)=O)c(N)c12: 8.77%
CN1CCN(c2ccnc(NCCc3ccccc3)n2)CC1: 80.4%
Cn1nc(C(=O)NCc2ccc(C(=O)O)cc2)cc1-c1ccc2[nH]ccc2c1: 8.85%
c1ccc(N2CCN(Cc3nc4ccccc4[nH]3)CC2)nc1: 2.35%
Cn1cc(Cl)c2c(Oc3c(F)cc(Nc4cc(Cl)nc(N)n4)cc3F)ccnc21: -1.64%
C[C@H](c1ccc(F)cc1)N(Cc1cccc(C(=O)O)c1)C(=O)c1cnc2ccccc2c1: 3.57%
C[C@@H](c1cccc(C#N)c1)n1cc(Cl)cc(C(N)=O)c1=N: 7.75%
Cc1ccccc1Oc1cc(-n2c(=O)cc(C(F)(F)F)[nH]c2=O)c2ccccc2c1Cl: 13%
Cc1cc(Nc2nccc(C)n2)cc(-c2cnc([C@@]3(O)CC[C@H](C(=O)O)C(C)(C)C3)s2)c1: -12.2%
CC1CCN(c2ccnc(NCc3cn(C)cn3)n2)CC1: 32.1%
O=C1NC(c2ccccn2)Sc2ccccc21 (centres unmarked): -15.9%
O=C(NCCCC1CCCCC1)c1ccc(CNC(=O)c2cnn(-c3ccccc3)c2C(F)(F)F)cc1: -0.05%
CNC(=N)NCCC[C@H](NC(=O)[C@H](CC(C)C)NC(=O)NNC(=O)[C@H](Cc1ccccc1)NC(=O)[C@H](CO)NC(=O)[C@H](CC(N)=O)NC(=O)[C@@H](Cc1ccncc1)NC(=O)[C@H](N)Cc1ccc(O)cc1)C(=O)N[C@@H](Cc1ccccc1)C(N)=O: 4.93%
CC[C@H](CC(=O)O)n1c(=O)c2ncccc2n(Cc2cn(C)c3cc(C)cc(C)c23)c1=O: 12.2%
C[C@@H]1CN(c2cc(-c3n[nH]c4ccc(OC5(C)CC5)cc34)ncn2)C[C@H](C)O1: -13.6%
O=c1nc(-c2ccccn2)sc2ccccc12: -1.33%
NS(=O)(=O)c1cc(NC(=O)Cc2ccccc2)ccc1Oc1cccc(Cl)c1: 17.2%
NC(=O)c1ccc2nc(-c3ccc(C4(N)CCC4)cc3)c(-c3ccccc3)n2n1: 17.8%
COc1ccc2cc(OCC3(C(=O)O)CN(C(=O)c4ccc(F)cc4)C3)ccc2c1: -6.47%
CN(C)c1ncnc(-c2ccc3nc(Nc4cc(CN5CCN(C(=O)CC(F)(F)F)CC5)ccn4)[nH]c3c2)c1Cl: 12.4%

Excerpt of the above (block 4):
C[C@@H]1CN(c2cc(-c3n[nH]c4ccc(OC5(C)CC5)cc34)ncn2)C[C@H](C)O1: -13.6%
O=c1nc(-c2ccccn2)sc2ccccc12: -1.33%
NS(=O)(=O)c1cc(NC(=O)Cc2ccccc2)ccc1Oc1cccc(Cl)c1: 17.2%
NC(=O)c1ccc2nc(-c3ccc(C4(N)CCC4)cc3)c(-c3ccccc3)n2n1: 17.8%
